Measurements of several laboratories.
Numbered parts are unrelated; each lists some results of a single study. Changes are numbered by the printed parent chain.

Sample 1
Target: Prothrombin, mature alpha-thrombin (F2, Homo sapiens, UniProt P00734)
Technique: aptamer microarray, sandwich
Molecule type: DNA with 2'F-ANA
Medium: in vitro
Concentration: 200 nM
Setting: whole 15-mer aptamer, many near background
Together with: Cy3 exosite-II aptamer, 400 nM
Direction: higher = stronger binding
Sequence: GGTTGGTGTGGTTGG
Modification	mean fluorescence intensity
2'F-ANA at 1 3 5 6 11 12 13 15	74.6 a.u.
2'F-ANA at 1 2 3 4 6 10 11 12	64.7 a.u.
2'F-ANA at 1 3 8 9 10 11 13 14	56.5 a.u.
2'F-ANA at 1 2 3 5 6 7 8 10 12 14 15	58.2 a.u.
2'F-ANA at 1 3 4 6 8 9 12 13 15	261 a.u.
2'F-ANA at 3 5 7 10 11 12 13 14 15	55 a.u.
2'F-ANA at 1 5 10 11 12 13	48.3 a.u.
2'F-ANA at 1 2 3 9 11 12	372 a.u.
2'F-ANA at 1 3 6 8 9 10	78.1 a.u.
2'F-ANA at 3 5 6 9 10	52.3 a.u.
2'F-ANA at 3 4 10 11 12 15	354 a.u.
2'F-ANA at 1 2 4 5 8 9 10 12 13 14	45.1 a.u.
2'F-ANA at 1 4 5 9 10 11 12 14 15	76.1 a.u.
2'F-ANA at 3 5 9 10 12 13 15	75.8 a.u.
2'F-ANA at 1 3 4 6 7 8 11 12 13 14 15	77.6 a.u.
2'F-ANA at 3 9 10 14 15	377 a.u.
2'F-ANA at 1 2 3 4 7 8 10 11	59.9 a.u.
2'F-ANA at 2 8 9 12 14 15	186 a.u.
2'F-ANA at 2 3 5 8 9 10 11 12 13 14	49.8 a.u.
2'F-ANA at 2 3 4 6 7 9 11 13 14 15	180 a.u.
2'F-ANA at 1 4 8 10 12 13 14	46.1 a.u.
2'F-ANA at 1 2 7 8 9 11 13 14 15	55.1 a.u.
2'F-ANA at 4 7 9 10 12 15	117 a.u.
2'F-ANA at 1 4 5 6 7 10 11 13 14	50.9 a.u.
2'F-ANA at 1 2 3 4 5 7 8 12	157 a.u.

Sample 2
Target: ABI1, truncated, D143A, DHFR fusion (Arabidopsis thaliana, UniProt P49597)
Technique: DHFR PCA, dose-response
Medium: yeast
Setting: Hill fit, mean, not affinity
Together with: (+)-ABA, dose series
Direction: lower = more sensitive
Starting sequence: PYL1, truncated, DHFR fusion (Arabidopsis thaliana, UniProt Q8VZS8); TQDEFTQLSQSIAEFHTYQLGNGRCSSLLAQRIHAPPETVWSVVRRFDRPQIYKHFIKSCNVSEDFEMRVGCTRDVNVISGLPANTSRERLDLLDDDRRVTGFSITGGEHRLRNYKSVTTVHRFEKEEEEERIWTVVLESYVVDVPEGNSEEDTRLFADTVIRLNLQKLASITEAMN
Variant	ABA EC50 [µM]
E89Q	765
L94W	6.04
D65C	4.49
S63K	2.85
H55N	1.71
L20Q	1.32
E151N	5.06
R88M	4.4
V76T	37.5
I162A	319
G102A	9.13
A13H	3.78
I57L	4.71
S27R	32.5
L20K	3.85
Q31S	95.3
R46D	60.8
A13C	6.19
R113M	3.44
Q167R	0.421
E130H	2.65
A35V	43.9
A30Q	2.92
L29I	2.41
I57M	65.3

Sample 3
Target: CCNB1, cyclin fold, Cln2 fusion (human)
Technique: yeast growth competition, sequencing
Medium: yeast
Setting: strong parent motif
Reference: not given
Direction: higher = stronger binding
Starting sequence: PKMYT1 docking peptide (human); SFEPRNLLSLFED; partner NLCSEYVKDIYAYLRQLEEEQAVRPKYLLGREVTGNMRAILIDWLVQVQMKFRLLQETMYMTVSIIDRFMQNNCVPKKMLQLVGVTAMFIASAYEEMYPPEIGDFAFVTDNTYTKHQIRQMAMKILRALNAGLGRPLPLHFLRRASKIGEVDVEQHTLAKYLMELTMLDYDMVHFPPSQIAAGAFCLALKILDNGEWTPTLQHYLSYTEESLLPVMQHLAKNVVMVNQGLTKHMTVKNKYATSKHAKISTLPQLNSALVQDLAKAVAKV
Variant	normalised enrichment score
E3P	0.806
R5M	1.18
L7K	-0.208
N6C	2
L7C	-0.0781
S9P	2.73
S9V	1.29
F2E	-0.325
P4G	-0.27
N6I	0.253
E12L	0.114
R5K	1.8
E3K	2.02
N6R	0.619

Sample 4
Target: RING finger protein unkempt homolog, zinc fingers 1-6, GST-SBP tag (UNK, Homo sapiens, UniProt Q9C0B0, residues 30-357)
UniProt Q9C0B0, sequence (30-357, looked up): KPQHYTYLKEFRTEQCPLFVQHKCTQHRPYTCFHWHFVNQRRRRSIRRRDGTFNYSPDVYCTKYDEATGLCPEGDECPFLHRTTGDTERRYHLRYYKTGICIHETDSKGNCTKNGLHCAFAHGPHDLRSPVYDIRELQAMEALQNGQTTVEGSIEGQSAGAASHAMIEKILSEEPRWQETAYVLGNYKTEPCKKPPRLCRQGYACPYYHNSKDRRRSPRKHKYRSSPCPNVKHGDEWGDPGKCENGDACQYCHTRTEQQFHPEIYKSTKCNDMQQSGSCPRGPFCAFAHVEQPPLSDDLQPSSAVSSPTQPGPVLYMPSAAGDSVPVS
Technique: RNA Bind-n-Seq
Molecule type: RNA
Medium: in vitro
Concentration: not given
Setting: RNA with constant flanks, human and mouse sites, ends assumed
Reference: input RNA pool
Direction: higher = stronger binding
Sequence	bound/input enrichment [ratio]
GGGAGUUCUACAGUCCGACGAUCCUCAUGUUUGUGCGUGUGUGUGUGUAUAUUUAUGGGCAUGGGUGCAUGCUUGGUGUGUAUUUGUACAUGUCUGUAUUGCUGUGUCCCUGUAAAUACAUGCUUGUGUAUGGAUGGAAGAGGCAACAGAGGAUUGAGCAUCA	0.205
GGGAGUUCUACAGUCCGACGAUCUUUAAGGAUUCUAUGCUGGCAUCUAUGUUUAGUGGUCGUUUCCCUCUAAAAACAGAUGAAUCUGGGGCGUGCAUUAUUAACCGUGAUGGACAUCUAUUCAAAUACAUUUUGGACUACCUGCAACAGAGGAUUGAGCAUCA	0.232
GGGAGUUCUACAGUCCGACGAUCAGGCCAAAUGAUUUCAGUGCCAAUCAGUGCCAAAAGAAAAUGAUGGAAGUGCAGAAGAAGUCUUUUGAAGAGAAAUAUGAUACCUUCAUGACGAUUUGCCAAAACUUUGAACCAGUUUUCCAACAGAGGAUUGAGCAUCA	0.162
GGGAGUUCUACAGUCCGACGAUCAUCAUGGCUACAAACAGACCAGAUACACUGGAUCCUGCUUUGCUGCGUCCAGGAAGAUUAGAUAGAAAAAUACAUAUUGAUUUGCCAAAUGAACAAGCAAGAUUAGACAUACUGAAAAUCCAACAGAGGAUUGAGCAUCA	55.1
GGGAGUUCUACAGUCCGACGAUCCUGAUUGGUUAUUUUUCCUUUCCUUCUGAGGUUCUCAUGUCAUUUUCUUCAUCGGAUGUGACUAAAAUUUUUCUGGUGUCUUCUGCCCUCUCUUUAAUUUUGCCUCUUGAGGGGUAGCAGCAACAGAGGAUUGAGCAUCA	0.367
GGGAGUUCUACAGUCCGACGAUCGAUGUCUCAUCCAUCUACCGAGUCCCCUUGUUGUUAGAGGAGCAAGGGGUUGUAGAUUAUUUUCUUCGAAGACUUGACCUUCCUAUUGAGAGGCAGCCAAGAAAAAUGCUGAUGAAAUGGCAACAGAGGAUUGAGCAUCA	0.263
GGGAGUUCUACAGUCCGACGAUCUGAGACCGACGUGUUUGUUGUUGGAACCGAAAGAGGGCGUGCUUUUGUCAAUACCAGAAAAGAUUUCCAAAAAGACUUUGUGAAGUAUUGUGUUGAAGAAGAAGAAAAGGCCGCCGAGAUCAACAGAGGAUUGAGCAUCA	0.181
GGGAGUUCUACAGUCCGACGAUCACAGUAAAAGCUGCAGAAAUGGCCCAGCGUUUGAGUGGGAUUAAUCGAUGGUGUAUCAGUGGCACUCCAGUACAGAGAGGAUUAGAGGAUCUUUUUGGGUUAGUGGUCUUUCUUGGUAUUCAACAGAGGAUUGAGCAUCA	0.347
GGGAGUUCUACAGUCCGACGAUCAGGCGCAAAGCAGCAAAUGUCACGUUACUCACCUCACUGGUAGAAGGGGAAGCUGUUCACUUAGCUCGGGAUUUCGGGUAUAUUUGUGAAACAGAGUUUCCUGCUAAAGCCGUGUCCGAGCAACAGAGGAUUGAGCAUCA	0.117
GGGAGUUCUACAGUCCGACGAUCAGGACAGGGUUAGGAUUGGCAAGGAGAGGGGCAGGAAGGUGGGGGGGGGGGUGGUGGCUCUAGUACCGGGGAGAAUAUUCCACAGAACUGUGACUAUGGCUUGGGGCAGGGGUGGGUGUGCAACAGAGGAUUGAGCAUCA	1.57
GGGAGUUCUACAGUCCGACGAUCAGCUGGGGUGAGCUGUGUCCUCCUCAUACCUCCAGGUGUGGCUCCACACAUCCCCAGGGGGUCGGUAUUAAGGCCUCGUGCUGACCUUUGCCCUAGUCCAUCUUCCUGACUCUCUGCCUCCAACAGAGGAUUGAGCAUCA	0.184

Sample 5
Target: Interferon regulatory factor 3, full length, phosphomimetic (IRF3, Homo sapiens, UniProt Q14653, residues 1-427, S386D/S396D/S398D/S402D/T404D/S405D)
UniProt Q14653, sequence (whole entry, unmodified, looked up): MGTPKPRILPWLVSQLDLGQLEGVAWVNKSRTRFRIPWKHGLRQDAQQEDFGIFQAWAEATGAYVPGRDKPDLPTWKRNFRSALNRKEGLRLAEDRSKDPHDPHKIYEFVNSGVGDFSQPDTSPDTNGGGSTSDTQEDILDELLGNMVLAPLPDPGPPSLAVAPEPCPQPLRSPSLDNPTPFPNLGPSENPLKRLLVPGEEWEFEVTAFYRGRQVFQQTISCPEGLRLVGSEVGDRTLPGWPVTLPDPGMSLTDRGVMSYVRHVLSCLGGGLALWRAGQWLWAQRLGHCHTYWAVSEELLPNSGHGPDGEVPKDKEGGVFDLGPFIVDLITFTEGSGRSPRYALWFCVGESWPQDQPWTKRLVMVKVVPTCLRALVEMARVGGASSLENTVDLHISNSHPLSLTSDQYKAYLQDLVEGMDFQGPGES
Technique: protein-binding microarray
Molecule type: double-stranded DNA, one strand shown
Medium: in vitro
Concentration: 2540 nM top
Setting: 60-bp whole probe
Together with: salmon DNA 0.4 mg/ml
Reference: random background probes
Direction: higher = stronger binding
Constant ends, left off below: GCCTAGCAC … GTCTTGATTCGCTTGACGCTGCTG
Sequence	fitted relative affinity [z-score]
GACGATTCCAGTTTCGGGACGTGCTAG	3.92
GACGAACTGATTTTCGAGACGTGCTAG	0.656
GACGAACTGGGGCCTGGAGACGTGCTA	-0.793
GACGGTATCGGGTATCGGCACGTGCTA	1.66
GACGATATCGGGAATCGAGACGTGCTA	0.209
TTAGATCTCAGACCGGATTAGTGCTAG	0.0105
GCCGGTTCCCTTTTCCTGACGTGCTAG	6.08
GACGGTTTCCTTATCCCGACGTGCTAG	8.42
TTAGGACTGGACCTTCGGTTAGTGCTA	-0.689
GACGGTATCGTTTTCCTGACGTGCTAG	4.85
TGATGTCTGGGTCTTGGTTCGTGCTAG	-0.991
GACGGTATCTGACTGGGGACGTGCTAG	0.324
GACGGTCTCAGTTTCGAGACGTGCTAG	3.24
GACGATATCGGGTTTCGAGTCGTGCTA	1.52
TCATATGTGTATATATAACTGTGCTAG	0.406
GACGGACTGGAGACTGGGGACGTGCTA	-0.753
TTAGAATTCAGTATCGATTAGTGCTAG	1.57
TTAGGTTTCGTGACTGGGTTAGTGCTA	2.1
TTAGGTATCCATCTCCTTTAGTGCTAG	5.02
TTAGGGTTCCTTATCCTTTAGTGCTAG	3.71
GACGAACTGAGCCTGGAGACGTGCTAG	-0.47
TTAGGTCTCCATATCCTTTAGTGCTAG	2.17
GACGGTTTCATACTGCTGACGTGCTAG	3.45
TTAGATATCCTTCTCCTTTAGTGCTAG	4.35
GACGGACTAGACTTTCGGGACGTGCTA	0.14
